Assay results from different studies.
A part holds a random share of what one study measured.
Chain of UniProt P54646 (whole entry, looked up): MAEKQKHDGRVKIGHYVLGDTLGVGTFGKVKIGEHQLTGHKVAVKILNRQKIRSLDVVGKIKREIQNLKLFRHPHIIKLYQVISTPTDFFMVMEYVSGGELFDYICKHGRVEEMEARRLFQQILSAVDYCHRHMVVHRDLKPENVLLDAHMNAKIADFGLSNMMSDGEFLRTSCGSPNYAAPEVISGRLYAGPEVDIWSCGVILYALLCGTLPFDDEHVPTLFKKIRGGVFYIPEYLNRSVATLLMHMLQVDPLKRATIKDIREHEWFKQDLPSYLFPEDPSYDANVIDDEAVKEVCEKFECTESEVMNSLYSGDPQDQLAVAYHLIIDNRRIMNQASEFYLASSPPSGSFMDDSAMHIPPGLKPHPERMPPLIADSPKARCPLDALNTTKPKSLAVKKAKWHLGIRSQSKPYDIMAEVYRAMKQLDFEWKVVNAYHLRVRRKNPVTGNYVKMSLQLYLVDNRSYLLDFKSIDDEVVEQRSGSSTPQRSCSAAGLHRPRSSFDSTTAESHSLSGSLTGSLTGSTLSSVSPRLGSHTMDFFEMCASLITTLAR
Chain of UniProt Q04771 (whole entry, looked up): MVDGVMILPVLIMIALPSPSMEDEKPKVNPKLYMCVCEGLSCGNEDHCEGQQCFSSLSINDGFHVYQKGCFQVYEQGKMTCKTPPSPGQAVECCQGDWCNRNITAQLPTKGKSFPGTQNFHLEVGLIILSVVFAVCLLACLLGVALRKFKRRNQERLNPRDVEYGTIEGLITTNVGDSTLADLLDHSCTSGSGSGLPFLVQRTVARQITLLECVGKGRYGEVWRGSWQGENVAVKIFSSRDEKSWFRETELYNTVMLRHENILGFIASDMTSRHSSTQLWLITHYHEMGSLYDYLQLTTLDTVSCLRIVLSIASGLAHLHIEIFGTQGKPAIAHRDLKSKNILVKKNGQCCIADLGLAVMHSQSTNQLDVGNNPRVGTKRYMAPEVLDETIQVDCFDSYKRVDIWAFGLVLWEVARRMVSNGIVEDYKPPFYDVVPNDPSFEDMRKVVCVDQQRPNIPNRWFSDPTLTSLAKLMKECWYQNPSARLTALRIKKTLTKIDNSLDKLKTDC
Chain of UniProt P04629 (whole entry, looked up): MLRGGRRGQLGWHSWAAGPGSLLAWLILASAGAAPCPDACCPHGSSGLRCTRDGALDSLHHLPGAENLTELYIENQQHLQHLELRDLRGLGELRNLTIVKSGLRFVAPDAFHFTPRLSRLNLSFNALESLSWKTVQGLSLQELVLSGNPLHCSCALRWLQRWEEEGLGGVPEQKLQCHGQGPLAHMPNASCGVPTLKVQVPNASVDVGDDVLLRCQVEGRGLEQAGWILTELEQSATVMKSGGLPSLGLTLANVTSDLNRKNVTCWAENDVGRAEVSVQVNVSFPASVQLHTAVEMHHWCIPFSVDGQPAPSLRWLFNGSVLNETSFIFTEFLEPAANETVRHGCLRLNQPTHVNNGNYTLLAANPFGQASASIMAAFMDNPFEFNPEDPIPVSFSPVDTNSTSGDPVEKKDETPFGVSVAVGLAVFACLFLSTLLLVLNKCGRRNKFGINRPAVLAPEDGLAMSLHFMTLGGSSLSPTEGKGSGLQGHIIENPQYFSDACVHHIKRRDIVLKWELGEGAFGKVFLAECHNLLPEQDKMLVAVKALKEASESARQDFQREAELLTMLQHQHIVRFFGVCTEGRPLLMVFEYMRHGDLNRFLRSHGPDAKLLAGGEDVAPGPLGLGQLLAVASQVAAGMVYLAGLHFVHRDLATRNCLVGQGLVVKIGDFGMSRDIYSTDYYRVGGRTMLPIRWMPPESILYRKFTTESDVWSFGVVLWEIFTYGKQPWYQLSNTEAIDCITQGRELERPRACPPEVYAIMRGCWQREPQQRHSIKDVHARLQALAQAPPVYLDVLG
Chain of UniProt Q9Y3S1 (whole entry, looked up): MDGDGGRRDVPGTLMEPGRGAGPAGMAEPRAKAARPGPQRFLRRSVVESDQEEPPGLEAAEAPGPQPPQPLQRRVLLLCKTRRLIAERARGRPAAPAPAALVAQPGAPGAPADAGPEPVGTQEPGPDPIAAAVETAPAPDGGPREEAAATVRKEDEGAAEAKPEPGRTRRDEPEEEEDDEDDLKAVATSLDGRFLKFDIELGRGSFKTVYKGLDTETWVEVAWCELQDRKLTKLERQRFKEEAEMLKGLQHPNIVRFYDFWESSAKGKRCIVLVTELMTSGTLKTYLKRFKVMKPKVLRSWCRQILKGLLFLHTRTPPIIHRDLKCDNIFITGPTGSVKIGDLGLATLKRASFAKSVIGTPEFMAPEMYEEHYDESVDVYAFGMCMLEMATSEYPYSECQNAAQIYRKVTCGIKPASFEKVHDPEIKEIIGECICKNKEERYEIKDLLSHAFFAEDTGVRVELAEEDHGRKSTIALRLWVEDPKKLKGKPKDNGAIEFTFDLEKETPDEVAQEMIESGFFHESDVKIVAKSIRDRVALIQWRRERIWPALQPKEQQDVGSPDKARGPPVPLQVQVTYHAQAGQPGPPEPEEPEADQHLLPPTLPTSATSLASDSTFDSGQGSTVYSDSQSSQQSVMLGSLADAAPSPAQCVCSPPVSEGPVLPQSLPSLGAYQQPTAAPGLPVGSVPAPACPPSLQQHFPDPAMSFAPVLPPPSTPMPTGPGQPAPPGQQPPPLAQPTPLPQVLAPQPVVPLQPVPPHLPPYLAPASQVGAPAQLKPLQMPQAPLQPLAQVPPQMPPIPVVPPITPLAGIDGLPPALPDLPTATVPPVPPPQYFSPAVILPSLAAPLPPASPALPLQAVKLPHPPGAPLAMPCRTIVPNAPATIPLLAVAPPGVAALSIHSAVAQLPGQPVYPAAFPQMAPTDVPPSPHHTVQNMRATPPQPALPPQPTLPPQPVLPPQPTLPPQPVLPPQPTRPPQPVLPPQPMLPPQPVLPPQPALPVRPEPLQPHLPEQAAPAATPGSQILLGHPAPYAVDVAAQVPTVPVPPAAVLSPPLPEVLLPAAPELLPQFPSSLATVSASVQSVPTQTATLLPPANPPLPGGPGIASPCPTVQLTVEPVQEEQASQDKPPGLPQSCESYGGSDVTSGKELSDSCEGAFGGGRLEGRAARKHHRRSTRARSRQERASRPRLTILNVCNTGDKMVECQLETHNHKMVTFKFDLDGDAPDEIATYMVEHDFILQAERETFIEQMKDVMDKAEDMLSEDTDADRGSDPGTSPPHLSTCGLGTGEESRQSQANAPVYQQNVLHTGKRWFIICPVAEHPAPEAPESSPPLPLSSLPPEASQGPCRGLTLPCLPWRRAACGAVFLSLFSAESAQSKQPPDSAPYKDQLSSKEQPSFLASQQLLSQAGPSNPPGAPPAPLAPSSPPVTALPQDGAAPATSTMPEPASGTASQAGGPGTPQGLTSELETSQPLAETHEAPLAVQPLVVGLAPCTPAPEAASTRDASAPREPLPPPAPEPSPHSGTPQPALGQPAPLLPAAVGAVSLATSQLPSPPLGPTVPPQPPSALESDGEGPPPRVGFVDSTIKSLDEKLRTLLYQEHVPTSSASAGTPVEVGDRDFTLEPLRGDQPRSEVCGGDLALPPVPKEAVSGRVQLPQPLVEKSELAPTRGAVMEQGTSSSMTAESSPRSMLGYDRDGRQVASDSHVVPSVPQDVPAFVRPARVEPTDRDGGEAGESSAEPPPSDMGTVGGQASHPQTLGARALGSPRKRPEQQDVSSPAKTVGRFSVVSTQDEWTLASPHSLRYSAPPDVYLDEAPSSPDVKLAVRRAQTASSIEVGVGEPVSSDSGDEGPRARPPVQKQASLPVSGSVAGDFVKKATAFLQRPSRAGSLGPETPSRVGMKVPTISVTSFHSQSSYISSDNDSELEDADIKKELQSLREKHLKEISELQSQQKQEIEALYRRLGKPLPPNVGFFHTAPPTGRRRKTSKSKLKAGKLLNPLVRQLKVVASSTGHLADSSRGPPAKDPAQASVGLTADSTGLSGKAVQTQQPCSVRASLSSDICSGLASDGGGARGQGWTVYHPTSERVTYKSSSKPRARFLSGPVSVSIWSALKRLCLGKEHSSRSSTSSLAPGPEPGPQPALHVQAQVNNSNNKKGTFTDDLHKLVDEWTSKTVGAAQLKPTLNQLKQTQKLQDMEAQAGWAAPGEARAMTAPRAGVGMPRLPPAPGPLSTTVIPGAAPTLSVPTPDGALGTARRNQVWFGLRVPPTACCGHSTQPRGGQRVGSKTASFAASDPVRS

Sample 1 — effect on: enzyme activity; action: inhibitor; concentration: 0.5 µM; relative to: control
Target: Mast/stem cell growth factor receptor Kit (KIT, Homo sapiens, UniProt P10721)
Chain of UniProt P10721 (whole entry, looked up): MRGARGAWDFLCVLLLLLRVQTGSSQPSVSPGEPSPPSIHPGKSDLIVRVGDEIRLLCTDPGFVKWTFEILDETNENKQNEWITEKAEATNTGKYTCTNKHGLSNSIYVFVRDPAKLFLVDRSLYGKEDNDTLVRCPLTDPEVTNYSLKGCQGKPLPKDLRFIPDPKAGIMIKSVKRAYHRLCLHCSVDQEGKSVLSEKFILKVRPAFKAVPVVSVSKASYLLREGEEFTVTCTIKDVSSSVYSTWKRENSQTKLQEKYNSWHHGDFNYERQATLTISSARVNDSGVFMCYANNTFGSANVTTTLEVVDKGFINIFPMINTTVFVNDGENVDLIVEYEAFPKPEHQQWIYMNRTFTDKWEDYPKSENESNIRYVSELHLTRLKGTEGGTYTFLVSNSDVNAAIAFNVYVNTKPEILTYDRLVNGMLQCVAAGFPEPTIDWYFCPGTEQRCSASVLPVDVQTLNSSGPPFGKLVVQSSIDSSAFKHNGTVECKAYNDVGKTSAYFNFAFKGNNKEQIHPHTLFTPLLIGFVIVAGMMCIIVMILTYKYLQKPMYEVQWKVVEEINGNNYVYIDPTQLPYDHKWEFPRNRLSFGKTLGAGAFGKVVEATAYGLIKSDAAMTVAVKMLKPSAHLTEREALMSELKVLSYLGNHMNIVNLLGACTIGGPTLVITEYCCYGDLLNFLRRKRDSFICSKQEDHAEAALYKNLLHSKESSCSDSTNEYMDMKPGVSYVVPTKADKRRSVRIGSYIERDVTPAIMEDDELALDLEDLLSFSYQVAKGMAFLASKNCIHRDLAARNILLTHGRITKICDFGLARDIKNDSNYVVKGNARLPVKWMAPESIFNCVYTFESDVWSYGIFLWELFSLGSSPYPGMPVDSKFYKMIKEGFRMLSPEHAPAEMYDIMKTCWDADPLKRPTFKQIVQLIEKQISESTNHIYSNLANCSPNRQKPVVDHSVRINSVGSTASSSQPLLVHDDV
| Compound | remaining activity |
| --- | --- |
| O=C(O)c1ccc2c3c1cccc3c(=O)n1c3ccccc3nc21 | 93.5% |
| O=C(CCCc1ccc(-c2ccccc2F)cc1)Nc1ccc(O)cc1 | 96.3% |
| OCC(O)CCON=C1C(c2c(O)[nH]c3ccccc23)=Nc2ccccc21 (centres unmarked) | 44.8% |
| COc1ccc(C(=O)Nc2sc3c(c2C(N)=O)CCCC3)cc1OC | 46.2% |
| COc1cc2ncnc(Nc3ccc(Oc4ccccc4)cc3)c2cc1OC | 75.6% |
| CO[C@H]1C[C@@H]2CC[C@@H](C)[C@@](O)(O2)C(=O)C(=O)N2CCCC[C@H]2C(=O)O[C@H]([C@H](C)C[C@@H]2CC[C@@H](O)[C@H](OC)C2)CC(=O)[C@H](C)/C=C(\C)[C@@H](O)[C@@H](OC)C(=O)[C@H](C)C[C@H](C)/C=C/C=C/C=C/1C | 95.7% |
| Cn1c2ccccc2c2c3c(c4c5ccccc5n(CCC#N)c4c21)CNC3=O | 96.9% |
| O=S(=O)(c1cccc2cnccc12)N1CCCNCC1 | 96.7% |
| CCOC(=O)c1c(C)[nH]c(/C=C2\C(=O)Nc3ccccc32)c1C | 46.3% |
| Nc1ccc2ncnc(NCCc3ccc(Oc4ccccc4)cc3)c2c1 | 99.7% |
| COc1ccc(OC)c2c(=S)c3ccccc3[nH]c12 | 78.6% |
| Cc1cccc(-c2[nH]c(C(C)(C)C)nc2-c2ccc3c(c2)OCO3)n1 | 93.6% |
| COc1cc2nccc(Oc3ccc(NC(=S)NC(=O)c4ccccc4C)cc3)c2cc1OC | 34.5% |
| COc1ccc(CNC(=O)Nc2ncc([N+](=O)[O-])s2)cc1 | 103% |

Sample 2 — technique: RNAcompete; molecule type: RNA; matrix: in vitro; concentration: 20 nM; notes: 7-mer, probes averaged, single round; relative to: mean of 7-mers; direction: higher = stronger binding
Target: PABPC1L2, full length, GST fusion (mouse, UniProt A0ABA7IW68)
Residues (chain): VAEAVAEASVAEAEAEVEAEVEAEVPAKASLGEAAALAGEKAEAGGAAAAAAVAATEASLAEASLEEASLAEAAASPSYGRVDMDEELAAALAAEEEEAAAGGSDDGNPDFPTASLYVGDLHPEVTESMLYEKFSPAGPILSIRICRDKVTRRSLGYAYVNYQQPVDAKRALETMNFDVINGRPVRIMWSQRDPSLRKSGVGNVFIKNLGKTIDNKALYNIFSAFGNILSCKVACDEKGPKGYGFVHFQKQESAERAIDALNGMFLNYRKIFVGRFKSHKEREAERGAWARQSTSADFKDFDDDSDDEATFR
| Strand | 7-mer Z-score |
| --- | --- |
| GACCUUU | -0.186 |
| ACACCAG | -0.112 |
| GUCUAUA | -0.193 |
| AUCUUAA | -0.0355 |
| UUAGUCU | -0.304 |
| CAACAUC | 0.0805 |
| CUACCUG | -0.311 |
| AUGGUAA | 0.108 |

Sample 3 — effect on: cell-free assay; technique: competition with immobilised ligand; concentration: 1 µM
Structure (SMILES): O=C(Nc1cccnn1)N1CC(C/C=C/c2cncc(Oc3ccc(C(F)(F)F)cn3)n2)C1
| target | remaining binding [%] |
| --- | --- |
| Tyrosine-protein kinase ABL1, phosphorylated (ABL1, Homo sapiens, UniProt P00519, T315I) | 80 |
| NTRK1 (Homo sapiens, UniProt P04629) | 82 |
| WNK2 (Homo sapiens, UniProt Q9Y3S1) | 0 |
| PRKAA2 (Homo sapiens, UniProt P54646) | 96 |
| ACVR1 (Homo sapiens, UniProt Q04771) | 92 |

Sample 4 — technique: RNA Bind-n-Seq; molecule type: RNA; matrix: in vitro; concentration: 20 nM; notes: 6-mer, flanks averaged, single round; together with: 150 mM LiCl; relative to: input library; direction: higher = stronger binding
Target: TAR DNA-binding protein 43, full length, His tag (TARDBP, Homo sapiens, UniProt Q13148, residues 1-414)
| Strand | 6-mer enrichment (R) |
| --- | --- |
| GUCCCC | 1.22 |
| CUAAAG | 0.846 |
| AUGGCU | 0.938 |
| CGGCUU | 0.923 |
| GUGUAA | 1.2 |
| CCGGAC | 0.945 |
| UUUUAC | 1.13 |
| AUAUGG | 1.04 |

For quick reference, copied from above (sample 4):
| Strand | 6-mer enrichment (R) |
| --- | --- |
| CGGCUU | 0.923 |
| GUGUAA | 1.2 |
| CCGGAC | 0.945 |
| UUUUAC | 1.13 |
| AUAUGG | 1.04 |
